Published values from different studies.
± gives the spread as reported.
Sequence of UniProt P09690 (whole entry, looked up): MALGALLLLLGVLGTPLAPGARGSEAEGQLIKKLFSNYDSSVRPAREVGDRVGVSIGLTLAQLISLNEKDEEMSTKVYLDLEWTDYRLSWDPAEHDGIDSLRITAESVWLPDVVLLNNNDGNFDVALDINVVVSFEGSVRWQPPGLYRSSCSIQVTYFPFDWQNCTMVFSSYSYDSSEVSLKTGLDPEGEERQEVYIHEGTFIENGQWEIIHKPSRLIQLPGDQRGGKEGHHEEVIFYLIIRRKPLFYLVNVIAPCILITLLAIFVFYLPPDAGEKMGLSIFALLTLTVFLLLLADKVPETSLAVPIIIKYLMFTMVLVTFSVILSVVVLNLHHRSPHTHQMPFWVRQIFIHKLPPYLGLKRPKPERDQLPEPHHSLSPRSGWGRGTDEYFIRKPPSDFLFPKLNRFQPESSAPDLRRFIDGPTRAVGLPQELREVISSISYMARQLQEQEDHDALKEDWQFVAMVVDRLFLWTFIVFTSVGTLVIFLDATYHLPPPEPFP
Sequence of UniProt P31323 (whole entry, looked up): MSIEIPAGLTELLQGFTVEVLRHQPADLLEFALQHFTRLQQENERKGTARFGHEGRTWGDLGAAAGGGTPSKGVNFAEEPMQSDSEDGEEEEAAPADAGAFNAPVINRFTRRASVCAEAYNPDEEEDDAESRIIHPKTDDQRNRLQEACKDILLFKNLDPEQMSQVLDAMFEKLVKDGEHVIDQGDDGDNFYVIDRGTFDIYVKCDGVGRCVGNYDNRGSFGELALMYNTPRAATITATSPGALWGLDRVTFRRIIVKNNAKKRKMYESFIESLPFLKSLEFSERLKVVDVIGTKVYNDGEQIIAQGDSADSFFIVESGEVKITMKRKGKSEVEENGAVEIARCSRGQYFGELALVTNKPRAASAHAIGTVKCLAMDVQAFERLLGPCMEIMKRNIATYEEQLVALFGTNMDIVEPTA
Sequence of UniProt Q6XUX3 (whole entry, looked up): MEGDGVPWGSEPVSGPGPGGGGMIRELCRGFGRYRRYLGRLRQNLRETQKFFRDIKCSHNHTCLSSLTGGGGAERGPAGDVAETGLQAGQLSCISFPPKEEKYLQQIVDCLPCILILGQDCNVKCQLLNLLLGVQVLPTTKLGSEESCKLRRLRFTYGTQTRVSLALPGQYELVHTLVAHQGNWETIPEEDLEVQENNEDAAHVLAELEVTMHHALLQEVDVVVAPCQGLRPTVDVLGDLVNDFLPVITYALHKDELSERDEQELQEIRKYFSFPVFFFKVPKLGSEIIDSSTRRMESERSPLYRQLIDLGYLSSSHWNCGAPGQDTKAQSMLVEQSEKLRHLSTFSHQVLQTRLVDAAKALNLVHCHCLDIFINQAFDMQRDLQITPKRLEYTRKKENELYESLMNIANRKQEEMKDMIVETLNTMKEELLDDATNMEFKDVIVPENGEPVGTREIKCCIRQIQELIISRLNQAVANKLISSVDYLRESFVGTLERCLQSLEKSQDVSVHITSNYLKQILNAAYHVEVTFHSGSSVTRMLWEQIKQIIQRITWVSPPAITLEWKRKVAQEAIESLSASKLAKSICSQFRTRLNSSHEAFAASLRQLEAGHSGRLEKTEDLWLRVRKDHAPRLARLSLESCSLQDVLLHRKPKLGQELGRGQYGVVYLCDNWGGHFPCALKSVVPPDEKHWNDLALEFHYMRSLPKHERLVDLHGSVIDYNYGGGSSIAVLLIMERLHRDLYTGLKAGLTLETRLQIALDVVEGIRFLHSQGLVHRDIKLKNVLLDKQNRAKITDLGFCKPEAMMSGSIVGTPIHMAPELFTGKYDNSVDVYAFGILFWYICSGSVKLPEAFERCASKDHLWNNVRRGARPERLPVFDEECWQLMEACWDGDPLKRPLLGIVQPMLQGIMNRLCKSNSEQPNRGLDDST
Sequence of UniProt P53779 (whole entry, looked up): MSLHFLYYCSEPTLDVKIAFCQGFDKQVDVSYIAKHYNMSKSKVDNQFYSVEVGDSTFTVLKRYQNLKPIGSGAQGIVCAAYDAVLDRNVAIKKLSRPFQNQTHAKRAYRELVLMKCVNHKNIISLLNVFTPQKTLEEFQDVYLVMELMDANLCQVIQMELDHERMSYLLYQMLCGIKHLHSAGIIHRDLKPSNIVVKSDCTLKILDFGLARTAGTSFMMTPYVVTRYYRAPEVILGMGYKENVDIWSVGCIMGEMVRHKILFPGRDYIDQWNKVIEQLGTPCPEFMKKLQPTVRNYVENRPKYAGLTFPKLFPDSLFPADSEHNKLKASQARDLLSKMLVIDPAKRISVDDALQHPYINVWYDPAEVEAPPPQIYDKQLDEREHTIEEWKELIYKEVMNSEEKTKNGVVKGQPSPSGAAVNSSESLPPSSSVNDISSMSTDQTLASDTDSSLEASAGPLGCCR
Sequence of UniProt Q99720 (whole entry, looked up): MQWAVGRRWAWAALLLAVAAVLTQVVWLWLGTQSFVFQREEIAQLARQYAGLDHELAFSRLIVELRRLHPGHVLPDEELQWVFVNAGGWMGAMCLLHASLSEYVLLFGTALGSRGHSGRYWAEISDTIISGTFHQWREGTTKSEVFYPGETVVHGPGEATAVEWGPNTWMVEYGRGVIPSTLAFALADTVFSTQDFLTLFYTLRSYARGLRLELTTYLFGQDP
Sequence of UniProt P04756 (whole entry, looked up): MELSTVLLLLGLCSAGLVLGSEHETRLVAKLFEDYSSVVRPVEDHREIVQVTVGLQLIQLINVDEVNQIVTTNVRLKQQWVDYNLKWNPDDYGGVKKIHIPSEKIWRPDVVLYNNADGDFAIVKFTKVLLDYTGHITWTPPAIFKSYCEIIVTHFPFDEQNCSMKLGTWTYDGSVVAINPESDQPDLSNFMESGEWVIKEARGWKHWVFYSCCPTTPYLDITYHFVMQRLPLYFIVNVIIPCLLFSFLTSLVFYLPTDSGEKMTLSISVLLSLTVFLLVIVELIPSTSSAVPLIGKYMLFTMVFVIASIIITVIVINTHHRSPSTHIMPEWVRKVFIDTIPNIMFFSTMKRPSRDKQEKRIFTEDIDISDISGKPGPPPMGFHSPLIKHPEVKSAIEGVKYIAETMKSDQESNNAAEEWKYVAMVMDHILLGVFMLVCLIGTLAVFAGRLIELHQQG
Sequence of UniProt Q9NS75 (whole entry, looked up): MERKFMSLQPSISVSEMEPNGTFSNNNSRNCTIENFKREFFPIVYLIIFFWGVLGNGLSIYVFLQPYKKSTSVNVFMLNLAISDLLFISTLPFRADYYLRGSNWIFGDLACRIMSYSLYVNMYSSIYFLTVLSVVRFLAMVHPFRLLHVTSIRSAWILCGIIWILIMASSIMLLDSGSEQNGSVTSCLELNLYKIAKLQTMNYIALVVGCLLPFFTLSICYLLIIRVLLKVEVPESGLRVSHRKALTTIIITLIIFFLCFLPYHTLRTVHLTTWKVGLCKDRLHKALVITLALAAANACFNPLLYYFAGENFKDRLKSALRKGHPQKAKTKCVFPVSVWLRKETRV
Sequence of UniProt Q96PF2 (whole entry, looked up): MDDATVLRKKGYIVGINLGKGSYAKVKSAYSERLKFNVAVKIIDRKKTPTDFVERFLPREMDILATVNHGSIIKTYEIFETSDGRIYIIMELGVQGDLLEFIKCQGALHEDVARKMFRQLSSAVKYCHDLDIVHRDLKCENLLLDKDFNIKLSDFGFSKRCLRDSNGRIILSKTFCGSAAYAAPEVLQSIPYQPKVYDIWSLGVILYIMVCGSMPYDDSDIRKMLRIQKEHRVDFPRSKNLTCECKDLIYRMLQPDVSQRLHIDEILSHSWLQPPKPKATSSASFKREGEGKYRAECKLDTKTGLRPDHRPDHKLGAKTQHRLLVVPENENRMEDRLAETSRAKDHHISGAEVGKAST
Sequence of UniProt Q6P988 (whole entry, looked up): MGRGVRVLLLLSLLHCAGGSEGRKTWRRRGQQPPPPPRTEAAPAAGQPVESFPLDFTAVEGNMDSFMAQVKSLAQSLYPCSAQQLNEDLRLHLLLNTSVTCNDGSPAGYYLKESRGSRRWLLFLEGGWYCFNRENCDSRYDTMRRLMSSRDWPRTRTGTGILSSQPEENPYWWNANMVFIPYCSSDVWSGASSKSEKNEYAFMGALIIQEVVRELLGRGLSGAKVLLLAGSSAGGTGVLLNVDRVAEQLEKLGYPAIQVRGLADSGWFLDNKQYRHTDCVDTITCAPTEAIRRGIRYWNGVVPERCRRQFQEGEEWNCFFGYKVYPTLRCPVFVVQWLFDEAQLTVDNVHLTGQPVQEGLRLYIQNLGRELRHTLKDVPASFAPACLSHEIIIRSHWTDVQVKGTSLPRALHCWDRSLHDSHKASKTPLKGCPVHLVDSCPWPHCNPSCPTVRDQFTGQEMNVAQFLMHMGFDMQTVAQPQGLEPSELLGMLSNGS

SMILES | target | assay | test system | conditions | scale | endpoint | result
CC[N+]1(CC)CCN(c2ccc(F)cc2)CC1 | Nicotinic acetylcholine receptor alpha1/beta1/epsilon/delta (Mus musculus, UniProt P02716+P04756+P09690+P20782) | ion current, inhibitor, two-electrode voltage clamp | Xenopus oocytes | 30 µM, after co-application, unit not given, together with: ACh 30 µM | baseline: ACh alone | ACh response | 0.539 ± 0.234
CC[C@@H](C)[C@@H](NC(=O)[C@@H](Cc1ccc(O)cc1)NC(=O)[C@H]1CCCN1C(=O)[C@@H](CCCNC(=N)N)NC(=O)[C@H](N)Cc1c[nH]cn1)C(=O)N[C@H](C)C(=O)N[C@H](Cc1c[nH]cn1)C(=O)N[C@H](CCCNC(=N)N)C(=O)N[C@H](CCCCNC(=O)c1cccc(S(=O)(=O)F)c1)C(=O)N[C@H](Cc1ccc(O)cc1)C(=O)N[C@H](CO)C(=O)N[C@H](Cc1ccccc1)C(N)=O | Transferrin receptor protein 1 (Tfrc, Mus musculus, UniProt Q62351) | flow cytometry | DC2.4 | 2 h, pH 6, replicate 3, unit not given | baseline: 0 h | surface TFRC expression | 0.896
Nc1ncc(-c2nc(N3CCOCC3)nc(N3CCOCC3)n2)c(C(F)F)n1 | DSTYK (Homo sapiens, UniProt Q6XUX3) | KINOMEscan | – | 10 µM | – | remaining binding | 79%
COc1ccc(N2C(=O)N(c3c(C)cccc3Cl)Cc3cnc(Nc4ccc(C5CCN(C)CC5)cc4OC)nc32)nc1 | BRSK1 (Homo sapiens, UniProt Q8TDC3) | kinase activity | – | 0.5 µM | – | inhibition | 10%
[2H]c1c([2H])c([C@]2([2H])CCCN2C(=O)C(C)(C)Oc2ccc3cn[nH]c3c2)c([2H])c([2H])c1C([2H])([2H])[2H] | MAPK10 (Homo sapiens, UniProt P53779) | KINOMEscan | – | 1 µM | baseline: DMSO control | remaining binding | 69%
Cc1nn(C)cc1-c1nc2c(N3CCN(Cc4ccc(Cl)cc4)CC3)c(Cl)cnc2[nH]1 | RIOK1 (Homo sapiens, UniProt Q9BRS2) | KINOMEscan | – | 1 µM | baseline: DMSO control | remaining binding | 9.2%
CN1CCN(c2cc(-c3ccncc3)c(-c3ccc4ccccc4c3)nn2)CC1 | CCR9 (Homo sapiens, UniProt P51686) | agonist, FLIPR | – | 12.5 µM | – | activation | -0.1%
Cc1ccc2c(c1)C1(C=C2)CCN(C2Cc3ccccc3CC2O)CC1 (racemic) | SIGMAR1 (Homo sapiens, UniProt Q99720) | – | rat liver (sigma2), human sigma1 | – | baseline: Ki sigma2 over Ki sigma1 | selectivity ratio | 120
O=C(Nc1cccnn1)N1CCC(=Cc2cccc(Oc3ccc(C(F)(F)F)cn3)c2)CC1 | TSSK2 (Homo sapiens, UniProt Q96PF2) | kinase activity, inhibitor | – | 50 µM, human, together with: CHKtide | – | inhibition | 20%
O=C(O)C(F)(OC(F)(F)C(F)(F)C(F)(F)F)C(F)(F)F (stereo not shown) | Albumin (ALB, Homo sapiens, UniProt P02768) | ITC | – | 25 °C | – | ΔS | 0.015 kcal/mol/K
CSc1ccc(C(=O)CCl)cc1 | UCHL1 (Homo sapiens, UniProt P09936) | covalent, intact protein LC-MS | – | 12.5 µM | – | labelling | 15.1%
C[C@H]1CN(c2n[nH]c3nc(N[C@H]4CC[C@H](NS(=O)(=O)CCC(F)(F)F)CC4)ncc23)CCO1 | PRKAR2B (Homo sapiens, UniProt P31323) | inhibitor, Kinobeads competition profiling | – | 0.8 µM | baseline: vehicle | relative abundance | 1.13
O=C(O)c1cccc(C(=O)O)n1 | VIM-2 (Escherichia coli, UniProt Q5U7L7) | enzyme activity, inhibitor | – | together with: nitrocefin | – | kon | 5000 ± 1670 M⁻¹ s⁻¹
O=C(c1ccc(Cl)cc1)N1CCN2C(=O)N(OC(=O)N3CCOc4ccccc43)C(=O)C2C1 (stereo not shown) | NOTUM (Homo sapiens, UniProt Q6P988) | MS-based ABPP | SW-620 conditioned medium | 10 µM, median protein ratio | baseline: compound over DMSO | probe labelling ratio | 2.55
COc1cc(Nc2ncc(F)c(Nc3ccc4c(n3)NC(=O)C(C)(C)O4)n2)cc(OC)c1OC | STK36 (Homo sapiens, UniProt Q9NRP7) | KINOMEscan | – | 10 µM | – | inhibition | 95%
O=C(Nc1cnccc1Cl)N1CCN(Cc2ccc3c(c2)OC(F)(F)O3)CC1 | CYSLTR2 (Homo sapiens, UniProt Q9NS75) | radioligand binding | – | 10 µM, together with: [3H]LTD4 | – | inhibition of binding | 10%

Some of these lines once more:
SMILES | target | assay | test system | conditions | scale | endpoint | result
C[C@H]1CN(c2n[nH]c3nc(N[C@H]4CC[C@H](NS(=O)(=O)CCC(F)(F)F)CC4)ncc23)CCO1 | PRKAR2B (Homo sapiens, UniProt P31323) | inhibitor, Kinobeads competition profiling | – | 0.8 µM | baseline: vehicle | relative abundance | 1.13
COc1ccc(N2C(=O)N(c3c(C)cccc3Cl)Cc3cnc(Nc4ccc(C5CCN(C)CC5)cc4OC)nc32)nc1 | BRSK1 (Homo sapiens, UniProt Q8TDC3) | kinase activity | – | 0.5 µM | – | inhibition | 10%
